Measured values pooled from the literature.
Parts stem from different laboratories: compare values within a part only. Positions count from the first letter of the parent shown.

Set 1
Target: Hepatocyte nuclear factor 3-beta, forkhead domain (FOXA2, Homo sapiens, UniProt Q9Y261, residues 142-269)
Method: protein-binding microarray
Molecule type: double-stranded DNA, one strand shown
Medium: in vitro
Concentration: not given
Notes: k-mer, scored over probes, only values ≥0.25
Reading: higher = stronger binding
Construct (chain): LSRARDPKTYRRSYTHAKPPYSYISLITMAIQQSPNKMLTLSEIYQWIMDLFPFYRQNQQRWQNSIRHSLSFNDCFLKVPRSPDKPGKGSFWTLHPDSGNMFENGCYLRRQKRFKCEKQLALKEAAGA
Sequence | E-score
TAATGCTA | 0.259
GTTATTGA | 0.27
GTTACAAA | 0.285
ATATTCCA | 0.38
ACCATCAC | 0.268
AATATGAT | 0.266
AGTAACAA | 0.303
ATAACATG | 0.298
CACACATA | 0.282
ATATCCCG | 0.259
ATAAAATG | 0.299
ATGTATAG | 0.292
ATAAACGG | 0.279
AGTACACA | 0.375
GATCAATA | 0.266

Set 2
Target: CCNB1, cyclin fold, Cln2 fusion (human)
Method: yeast growth competition, sequencing
Medium: yeast
Notes: weak parent motif
Baseline: not given
Reading: higher = stronger binding
Starting sequence: SCAPER docking peptide (human); SNARRSLNFGGST
Substitution | normalised enrichment score
SNARVSLNFGGST [R5V] | 1.11
SNARRSLNAGGST [F9A] | 0.131
SNARRSLKFGGST [N8K] | 0.852
SQARRSLNFGGST [N2Q] | 1.01
SNARRSLNDGGST [F9D] | 0.472
SNASRSLNFGGST [R4S] | -0.16
SNARRSLNCGGST [F9C] | 0.412
PNARRSLNFGGST [S1P] | 0.131
SNARRSLNFVGST [G10V] | -0.826
SNARKSLNFGGST [R5K] | -0.246
WNARRSLNFGGST [S1W] | 1.36
SGARRSLNFGGST [N2G] | 0.904
SNARRSLNFGDST [G11D] | 0.767
SNARRSWNFGGST [L7W] | 0.164
SNARRSCNFGGST [L7C] | 0.0388
SNARRSLNFGTST [G11T] | 1.2
SNARRSYNFGGST [L7Y] | 0.231
SNARRSLNGGGST [F9G] | -0.424
SNARRSLNFGAST [G11A] | -0.224
SNARRSDNFGGST [L7D] | 0.687
SNARRSLNFGFST [G11F] | -0.03
SEARRSLNFGGST [N2E] | 0.0064
SNARRILNFGGST [S6I] | 0.401
FNARRSLNFGGST [S1F] | 1.31
SLARRSLNFGGST [N2L] | 0.697

Set 3
Target: Prothrombin, mature alpha-thrombin (F2, Homo sapiens, UniProt P00734)
Method: aptamer microarray, sandwich
Molecule type: DNA with 2'F-ANA
Medium: in vitro
Concentration: 200 nM
Notes: whole 15-mer aptamer, many near background
Added: Cy3 exosite-II aptamer, 400 nM
Reading: higher = stronger binding
Sequence: GGTTGGTGTGGTTGG
Modification | mean fluorescence intensity
2'F-ANA at 2 3 4 6 7 8 10 13 15 | 195 a.u.
2'F-ANA at 3 7 8 9 11 12 13 14 | 685 a.u.
2'F-ANA at 1 3 6 8 9 10 11 14 15 | 61.2 a.u.
2'F-ANA at 4 5 6 11 13 | 62.9 a.u.
2'F-ANA at 2 6 8 10 11 13 14 15 | 74.1 a.u.
2'F-ANA at 2 3 5 6 10 11 12 13 | 57.4 a.u.
2'F-ANA at 1 3 5 6 7 8 12 | 157 a.u.
2'F-ANA at 1 3 4 7 8 9 10 11 14 | 53.4 a.u.
2'F-ANA at 1 2 3 5 7 10 11 | 205 a.u.
2'F-ANA at 1 2 4 5 6 7 8 13 15 | 56.7 a.u.
2'F-ANA at 1 2 3 4 5 6 8 10 12 13 15 | 50.4 a.u.
2'F-ANA at 3 4 5 7 8 10 15 | 53 a.u.
2'F-ANA at 1 4 5 6 7 8 9 11 12 13 | 70.4 a.u.
2'F-ANA at 1 2 3 4 5 6 9 13 14 | 112 a.u.
2'F-ANA at 2 3 6 8 12 13 | 838 a.u.
2'F-ANA at 1 4 5 6 9 11 12 14 | 56.5 a.u.
2'F-ANA at 1 2 6 10 12 13 15 | 66.7 a.u.
2'F-ANA at 1 2 4 6 7 8 10 11 12 13 | 72.6 a.u.
2'F-ANA at 1 4 6 8 9 10 15 | 92.9 a.u.
2'F-ANA at 1 2 4 5 6 7 10 11 12 15 | 52.8 a.u.
2'F-ANA at 1 3 4 5 7 9 12 14 | 263 a.u.
2'F-ANA at 1 11 13 14 15 | 52.5 a.u.
2'F-ANA at 1 3 4 8 9 11 | 198 a.u.
2'F-ANA at 1 4 8 9 14 15 | 61.4 a.u.

Set 4
Target: FOSL2, bZIP domain (human)
Method: DHFR protein complementation
Medium: yeast
Notes: single substitutions, most at no-binding floor
Baseline: wild-type JUN-FOS pair
Reading: higher = stronger binding
Starting sequence: JUN, bZIP domain (human); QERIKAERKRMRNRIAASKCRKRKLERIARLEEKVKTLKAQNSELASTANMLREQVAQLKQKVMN; partner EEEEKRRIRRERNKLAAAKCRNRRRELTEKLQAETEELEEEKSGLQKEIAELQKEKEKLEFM
Substitution | binding fitness
K34E | -0.049 natural log
I28D | -0.218 natural log
S47V | 0.16 natural log
K39T | -0.126 natural log
R53Q | -0.398 natural log
I28V | 0.0564 natural log
M51D | 0.07 natural log
R53V | -0.582 natural log
A49R | 0.192 natural log
R30Q | 0.157 natural log
V35W | -0.358 natural log
R53N | -0.612 natural log
E44S | -0.0516 natural log
K39W | -0.83 natural log
A29W | -0.0714 natural log
L52P | -1.25 natural log
A40Q | 0.255 natural log
S47G | 0.0445 natural log
A49N | -0.545 natural log
S47C | 0.113 natural log

Mixed results
Substance | target | assay | system | conditions | how to read | quantity | value
PhoQ, residues 284 288 289 292 302 303 SNSSNI | PhoP, residues 12 14 15 18 19 SPWRL (Escherichia coli, UniProt P23836) | Sort-seq, measured: YFP reporter | E. coli | PhoQ-PhoP variant library, added: 10 µM Mg2+ | baseline: high Mg2+ state, higher = stronger signaling | fold induction | 1.32
